Published values of several laboratories.
Every numbered part comes from another study and shows a few of its results, in no order.
Chain of UniProt O15294 (whole entry, looked up): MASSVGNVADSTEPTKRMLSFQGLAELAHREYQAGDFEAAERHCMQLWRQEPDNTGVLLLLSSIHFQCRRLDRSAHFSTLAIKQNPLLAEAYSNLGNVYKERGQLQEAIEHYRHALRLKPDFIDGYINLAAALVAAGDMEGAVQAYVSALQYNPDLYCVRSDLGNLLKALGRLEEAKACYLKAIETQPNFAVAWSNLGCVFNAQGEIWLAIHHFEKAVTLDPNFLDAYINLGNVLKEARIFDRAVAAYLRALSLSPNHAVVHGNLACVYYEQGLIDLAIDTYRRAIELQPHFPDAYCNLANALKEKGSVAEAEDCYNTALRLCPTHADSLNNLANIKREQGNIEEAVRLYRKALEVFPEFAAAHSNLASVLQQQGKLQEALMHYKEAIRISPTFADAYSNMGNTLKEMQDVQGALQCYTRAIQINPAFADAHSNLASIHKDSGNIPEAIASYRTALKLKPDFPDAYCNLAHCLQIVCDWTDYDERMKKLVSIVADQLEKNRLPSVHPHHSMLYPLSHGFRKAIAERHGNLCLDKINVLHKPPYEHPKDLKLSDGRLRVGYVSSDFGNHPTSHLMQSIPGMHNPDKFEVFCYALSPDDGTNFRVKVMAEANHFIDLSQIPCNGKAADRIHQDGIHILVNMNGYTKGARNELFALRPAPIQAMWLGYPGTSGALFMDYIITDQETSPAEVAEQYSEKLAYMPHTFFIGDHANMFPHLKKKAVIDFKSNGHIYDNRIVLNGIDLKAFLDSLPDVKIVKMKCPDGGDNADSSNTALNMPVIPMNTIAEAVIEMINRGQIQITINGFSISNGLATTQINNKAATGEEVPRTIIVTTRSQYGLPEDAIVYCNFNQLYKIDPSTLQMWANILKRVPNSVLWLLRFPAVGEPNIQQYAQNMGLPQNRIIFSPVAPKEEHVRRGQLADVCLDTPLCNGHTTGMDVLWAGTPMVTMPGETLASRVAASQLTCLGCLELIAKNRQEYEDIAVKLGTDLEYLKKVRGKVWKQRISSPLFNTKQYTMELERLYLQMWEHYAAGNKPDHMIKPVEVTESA

Study 1
Target: RNA binding protein fox-1 homolog 2, RRM domain, GST-SBP tag (RBFOX2, Homo sapiens, UniProt O43251-10, residues 100-194)
Technique: RNA Bind-n-Seq
Form: RNA
Sample: in vitro
Concentration: 365 nM
Setting: natural RNA segment, single round, ends assumed
Reference: no-protein control
Direction: higher = stronger binding
Constant ends, left off below: GGGAGUUCUACAGUCCGACGAUC … UGGAAUUCUCGGGUGCCAA
Residues (chain): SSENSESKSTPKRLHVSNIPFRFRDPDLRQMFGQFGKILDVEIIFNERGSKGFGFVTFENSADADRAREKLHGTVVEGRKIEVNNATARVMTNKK
Oligonucleotide	RBNS enrichment (R)
GUGUUAACUUGUUUAGUCCCCUUUACUCUGAGAUAGGUACUGUUACCCCAGUUUUACAAAUGGCUAAGCUGAAGCAGAGAUGUUGAAGGAUCCUACCUAAGGGGCACAAC	0.392
UUCUCCAGUCCUACAGAUGAAAGCAAAGUAGGAAAUGAUCAUGGGCUUAUUGGGGCUUUUAGCAUCUCUAGUAAGUAGCAUACAGCUUUGGCUGGCUUUCUAUCCACAAA	2.92
CGAAGGGCGUUCCAAUGCAGGAAAAUGAACCUCUUUCCCAACCCAGGACUGGGGCUUUCUCCCCAGAGGUGAGCCUCUGUGAGCAUCGAGAGGAUUUGCACAUGCCAAGC	6.42
UAAUUGGGGGUGGGUUACAAAACAUUUGAUCCUUGUAAAUACAUUGUACAGAAUAUUUAUUUUUUCUCAAAAUGCAUUUUAACUACUACAUUGGCUGUGCCCAAAUGAGU	0.549
AUUCCCUAGACCCAGGAUGGACCCUUCAGUUAUAGAAAUUUGUUUAUGGAACCCGGUGGCUCCCGUCAUGUUUCUCCUUACUCAUCCAAUUGGUACCCACAACUGAAGAG	0.36
AGUCCCCACGUGGUCGAGUCUGGAUCUGUAAAACUCUUCUGAUAAUGGCAAUACUUUAGGGCAGAGAUAAAACCUUUUGGUAUUUUAGCUAGCCCCCAAAUCAAAAGCAC	0.539
UCCAGCACACAGUGUGUAUGUUGGAGGGAGUGUGGAUUAGCAGAGAAUGAGAACUACCUCAGCUAUUCCUGCCAUAACCACACUGAGAGAGGGGGGCACGGUGGGGAGCC	1.23
GGGAUUGAGUCUUGAGGAAUUCUCUCAGAUGAGAGCCAUAGGAGAUGGCCUCAUCUCCUGACUGUUUCAUGAACAACUCAUUCCUAGGUGUUAUUUGCAUGUGUGGGUUU	24.5

Study 2
Target: Sal-like protein 4, full length isoform B (SALL4, Homo sapiens, UniProt Q9UJQ4-2, residues 1-616)
Technique: universal PBM
Form: double-stranded DNA, one strand shown
Sample: in vitro
Concentration: not given
Setting: 8-mer, flanks averaged, mean of replicates
Direction: higher = stronger binding
Oligonucleotide	E-score
GCGTCCAC	-0.241
CAAACATA	0.191
CTGGTATC	-0.071
AACGGGTC	-0.231
GGCCCAAC	-0.225
CAGTTCAA	-0.0474
CAAAGGGC	-0.295
GGGGTTTA	-0.0532

Further values, each from its own experiment
Substance	tested on	assay	test system	setting	scale	quantity	result
PIK3C2B (Homo sapiens, UniProt O00750)	CNGA3 (Homo sapiens, UniProt Q16281)	cross-linking MS	cell fractions	with: DHSO	–	cross-linked residues	E1130 to E292
RPITSAYQPSYQIVL	UDP-N-acetylglucosamine--peptide N-acetylglucosaminyltransferase 110 kDa subunit (OGT, Homo sapiens, UniProt O15294)	phage display binding, phage display panning NGS	peptide	–	reference: OGT-panned over input library	log2 fold enrichment	2.13
PAXIP1 (Homo sapiens, UniProt Q6ZW49)	WDR33 (Homo sapiens, UniProt Q9C0J8)	cross-linking MS	cell fractions	with: DSSO	–	cross-linked residues	K244 to K264
HNRNPDL (Homo sapiens, UniProt O14979)	HNRNPK (Homo sapiens, UniProt P61978)	cross-linking MS	cell fractions	with: DSSO	–	cross-linked residues	K311 to K405
H1-2 (Homo sapiens, UniProt P16403)	EP400 (Homo sapiens, UniProt Q96L91)	cross-linking MS	cell fractions	with: DSSO	–	cross-linked residues	K148 to K908

Some of these lines once more (study 1):
Oligonucleotide	RBNS enrichment (R)
UAAUUGGGGGUGGGUUACAAAACAUUUGAUCCUUGUAAAUACAUUGUACAGAAUAUUUAUUUUUUCUCAAAAUGCAUUUUAACUACUACAUUGGCUGUGCCCAAAUGAGU	0.549
UCCAGCACACAGUGUGUAUGUUGGAGGGAGUGUGGAUUAGCAGAGAAUGAGAACUACCUCAGCUAUUCCUGCCAUAACCACACUGAGAGAGGGGGGCACGGUGGGGAGCC	1.23
AUUCCCUAGACCCAGGAUGGACCCUUCAGUUAUAGAAAUUUGUUUAUGGAACCCGGUGGCUCCCGUCAUGUUUCUCCUUACUCAUCCAAUUGGUACCCACAACUGAAGAG	0.36
